Published values collected from several papers.
Protocols differ between the studies behind these lines. ± gives the spread as reported.

SMILES | cell line | effect on | method | concentration | time | viability
COc1cc(C=CC(=O)CC(=O)C=Cc2ccc(OCC(=O)NCCOCCOCCOCC(F)(F)F)c(OC)c2)ccc1O | SH-SY5Y | – | MTT | 0.9 µM | 24 h | 95.2 ± 6%
CC(C)CCC[C@@H](C)[C@H]1CC[C@@H]([C@@H]2CC[C@H]3C[C@H](O)CC[C@]3(C)C2=O)[C@]1(C)CC(=O)NCCS(=O)(=O)O | HEK293T | – | CellTiter-Blue | 10 µM | – | > 100%
N=C(N)NCCC[C@@H]1NC(=O)[C@H](CCCNC(=N)N)NC(=O)[C@H](CCCNC(=N)N)NC(=O)[C@H](Cc2c[nH]c3ccccc23)NC(=O)[C@H](Cc2c[nH]c3ccccc23)NC(=O)[C@H](Cc2c[nH]c3ccccc23)NC(=O)[C@H](Cc2c[nH]c3ccccc23)NC(=O)[C@H](CCCNC(=N)N)NC1=O | SK-OV-3 | – | MTS | 50 µM | 24 h | ~78%
O=S(=O)(O)CC1CSSCC(CS(=O)(=O)O)SS1 (stereo not drawn) | OECM1 | – | – | 127 µM | 4 d | 59.8%
COc1cccc(/C=N/NC(=O)COc2ccc(/C=N/NC(=O)C(C)c3ccc(CC(C)C)cc3)cc2)c1O (stereo not drawn) | HEK293 | – | MTT | 80 µM | 48 h | 49.8%
CC(C)CCC[C@@H](C)[C@H]1CCC([C@@H]2CC[C@H]3C[C@@H](O)CC[C@]3(C)[C@@H]2O)[C@]1(C)CC(=O)O (stereo partly drawn) | HEK293T | – | CellTiter-Blue | concentration not given | – | 45%
CC(C)Cc1ccc(C(C)C(=O)N/N=C/c2ccc(OCC(=O)N/N=C/c3ccc([N+](=O)[O-])cc3)cc2)cc1 (stereo not drawn) | HEK293 | – | MTT | 10 µM | 48 h | 49.3%
CCCCc1ccc(N2C(=O)/C(=N\NC(=N)N)c3cc(C)ccc32)cc1 | BJ normal fibroblasts | – | MTT | up to 2 µg/mL | 24 h | > 80%
CC(C)Cc1ccc(C(C)C(=O)N/N=C/c2ccc(OCC(=O)N/N=C/c3c(O)ccc4ccccc34)cc2)cc1 (stereo not drawn) | HEK293 | – | MTT | 100 µM | 48 h | 25.7%
O=C1/C(=C/c2ccc3c(c2)OCCO3)SC(=S)N1[C@@H]1O[C@H](CO)[C@@H](O)[C@H](O)[C@H]1O | THLE-2 | cell growth or viability | MTT | 100 µM | 48 h | ~75%
O=C(C=Cc1ccc(O)c(OC(F)(F)F)c1)C(CCOCCOCCOCCO)C(=O)C=Cc1ccc(O)c(OC(F)(F)F)c1 (stereo not drawn) | SH-SY5Y | – | MTT | 0.9 µM | 24 h | 99.6 ± 6.2%
CC(C)Cc1ccc(C(C)C(=O)NN=Cc2ccc(OCC(=O)NN=Cc3cccc([N+](=O)[O-])c3)cc2)cc1 (stereo not drawn) | HEK293 | – | MTT | 150 µM | 48 h | 91.2%

Some of these lines once more:
SMILES | cell line | effect on | method | concentration | time | viability
COc1cccc(/C=N/NC(=O)COc2ccc(/C=N/NC(=O)C(C)c3ccc(CC(C)C)cc3)cc2)c1O (stereo not drawn) | HEK293 | – | MTT | 80 µM | 48 h | 49.8%
